Assay results from different studies.
Numbers after ± are the reported error.
Genome polyprotein protease: Genome polyprotein, protease (Coxsackievirus B3, UniProt P03313)
Chain of UniProt P03313 (whole entry, looked up): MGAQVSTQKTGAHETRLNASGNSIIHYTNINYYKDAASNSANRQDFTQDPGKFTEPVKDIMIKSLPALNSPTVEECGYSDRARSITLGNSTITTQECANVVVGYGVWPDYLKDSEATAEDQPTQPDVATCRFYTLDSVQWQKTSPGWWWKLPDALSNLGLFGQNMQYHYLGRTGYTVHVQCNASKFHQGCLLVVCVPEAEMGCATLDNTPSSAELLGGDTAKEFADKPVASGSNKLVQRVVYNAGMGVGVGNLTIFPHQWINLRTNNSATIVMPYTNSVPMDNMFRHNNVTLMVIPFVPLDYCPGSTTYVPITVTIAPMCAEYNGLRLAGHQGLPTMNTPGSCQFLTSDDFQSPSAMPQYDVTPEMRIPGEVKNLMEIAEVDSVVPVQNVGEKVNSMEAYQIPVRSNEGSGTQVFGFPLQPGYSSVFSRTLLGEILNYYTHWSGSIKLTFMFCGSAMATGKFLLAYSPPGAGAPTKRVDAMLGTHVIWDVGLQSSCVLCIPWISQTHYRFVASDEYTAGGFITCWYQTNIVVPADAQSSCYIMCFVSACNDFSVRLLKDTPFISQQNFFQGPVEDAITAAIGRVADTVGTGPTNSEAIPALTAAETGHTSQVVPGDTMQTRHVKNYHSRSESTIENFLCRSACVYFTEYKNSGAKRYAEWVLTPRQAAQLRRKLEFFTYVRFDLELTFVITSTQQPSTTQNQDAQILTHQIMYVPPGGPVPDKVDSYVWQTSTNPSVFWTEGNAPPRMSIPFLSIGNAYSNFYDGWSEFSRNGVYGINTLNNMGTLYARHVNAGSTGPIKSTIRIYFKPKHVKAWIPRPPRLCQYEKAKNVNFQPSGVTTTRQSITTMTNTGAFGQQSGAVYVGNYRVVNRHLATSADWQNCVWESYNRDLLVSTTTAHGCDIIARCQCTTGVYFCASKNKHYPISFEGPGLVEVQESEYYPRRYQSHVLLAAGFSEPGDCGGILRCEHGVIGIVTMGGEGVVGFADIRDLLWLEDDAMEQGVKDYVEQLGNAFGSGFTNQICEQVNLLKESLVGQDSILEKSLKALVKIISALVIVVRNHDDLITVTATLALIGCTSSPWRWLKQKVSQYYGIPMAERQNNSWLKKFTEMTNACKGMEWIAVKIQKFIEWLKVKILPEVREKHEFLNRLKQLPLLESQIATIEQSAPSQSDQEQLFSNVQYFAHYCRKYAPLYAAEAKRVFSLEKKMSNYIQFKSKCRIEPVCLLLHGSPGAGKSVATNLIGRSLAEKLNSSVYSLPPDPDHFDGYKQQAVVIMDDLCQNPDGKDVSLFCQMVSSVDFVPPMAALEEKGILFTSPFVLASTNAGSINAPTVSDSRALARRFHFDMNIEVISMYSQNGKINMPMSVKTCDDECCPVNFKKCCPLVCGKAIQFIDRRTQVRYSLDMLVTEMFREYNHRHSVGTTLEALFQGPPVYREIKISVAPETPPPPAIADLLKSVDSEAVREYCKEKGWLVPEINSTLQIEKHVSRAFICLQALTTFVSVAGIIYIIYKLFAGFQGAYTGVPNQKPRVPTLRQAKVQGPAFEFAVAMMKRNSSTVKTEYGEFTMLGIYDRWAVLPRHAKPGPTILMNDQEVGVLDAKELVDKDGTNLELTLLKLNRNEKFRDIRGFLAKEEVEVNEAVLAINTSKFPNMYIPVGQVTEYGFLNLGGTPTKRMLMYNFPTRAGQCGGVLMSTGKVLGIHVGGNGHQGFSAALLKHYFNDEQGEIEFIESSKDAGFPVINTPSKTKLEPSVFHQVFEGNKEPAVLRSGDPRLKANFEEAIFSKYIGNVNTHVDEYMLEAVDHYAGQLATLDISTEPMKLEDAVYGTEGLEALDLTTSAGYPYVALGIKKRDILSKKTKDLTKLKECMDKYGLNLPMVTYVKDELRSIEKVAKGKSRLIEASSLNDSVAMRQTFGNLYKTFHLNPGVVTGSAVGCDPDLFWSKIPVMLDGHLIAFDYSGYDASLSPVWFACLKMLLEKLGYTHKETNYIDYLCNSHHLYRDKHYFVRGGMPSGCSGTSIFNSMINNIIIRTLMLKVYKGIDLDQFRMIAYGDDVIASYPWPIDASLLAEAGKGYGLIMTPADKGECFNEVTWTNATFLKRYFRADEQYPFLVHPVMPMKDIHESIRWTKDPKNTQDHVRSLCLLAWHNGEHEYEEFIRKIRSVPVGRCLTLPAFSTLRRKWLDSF
DNA ligase A: DNA ligase A (Mycobacterium tuberculosis, UniProt P9WNV1)
Adenosylmethionine-8-amino-7-oxononanoate aminotransferase: Adenosylmethionine-8-amino-7-oxononanoate aminotransferase (Mycobacterium tuberculosis, UniProt P9WQ81)
Chain of UniProt P9WQ81 (whole entry, looked up): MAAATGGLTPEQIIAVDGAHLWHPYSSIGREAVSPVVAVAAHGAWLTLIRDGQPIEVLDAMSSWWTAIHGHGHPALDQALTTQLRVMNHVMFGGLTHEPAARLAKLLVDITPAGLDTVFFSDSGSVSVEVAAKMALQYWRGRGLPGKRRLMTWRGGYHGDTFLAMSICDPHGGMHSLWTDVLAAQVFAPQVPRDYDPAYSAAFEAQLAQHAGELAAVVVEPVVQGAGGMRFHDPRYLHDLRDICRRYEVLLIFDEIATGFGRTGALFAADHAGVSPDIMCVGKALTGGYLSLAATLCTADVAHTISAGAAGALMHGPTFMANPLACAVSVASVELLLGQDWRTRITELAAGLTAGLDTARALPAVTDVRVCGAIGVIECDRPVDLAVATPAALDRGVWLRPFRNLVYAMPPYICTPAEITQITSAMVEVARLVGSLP
Replicase polyprotein 1ab main protease: Replicase polyprotein 1ab, main protease (Human coronavirus OC43, UniProt P0C6X6)
Dihydrolipoyl dehydrogenase: Dihydrolipoyl dehydrogenase (Mycobacterium tuberculosis, UniProt P9WHH9)
Chain of UniProt P9WHH9 (whole entry, looked up): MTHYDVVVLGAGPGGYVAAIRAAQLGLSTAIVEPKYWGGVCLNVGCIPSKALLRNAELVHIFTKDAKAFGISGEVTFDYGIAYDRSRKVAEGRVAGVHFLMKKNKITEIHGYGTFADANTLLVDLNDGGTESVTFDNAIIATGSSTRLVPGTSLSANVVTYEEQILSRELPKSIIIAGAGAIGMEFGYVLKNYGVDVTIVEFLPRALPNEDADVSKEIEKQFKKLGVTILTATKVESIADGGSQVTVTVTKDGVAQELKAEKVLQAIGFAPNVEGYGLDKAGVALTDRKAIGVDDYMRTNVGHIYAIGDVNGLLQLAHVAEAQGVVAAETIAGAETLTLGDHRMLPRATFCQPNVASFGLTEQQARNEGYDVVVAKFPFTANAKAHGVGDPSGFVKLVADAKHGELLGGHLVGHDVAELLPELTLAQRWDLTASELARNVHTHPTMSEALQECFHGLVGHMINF
Chain of UniProt Q0P543 (whole entry, looked up): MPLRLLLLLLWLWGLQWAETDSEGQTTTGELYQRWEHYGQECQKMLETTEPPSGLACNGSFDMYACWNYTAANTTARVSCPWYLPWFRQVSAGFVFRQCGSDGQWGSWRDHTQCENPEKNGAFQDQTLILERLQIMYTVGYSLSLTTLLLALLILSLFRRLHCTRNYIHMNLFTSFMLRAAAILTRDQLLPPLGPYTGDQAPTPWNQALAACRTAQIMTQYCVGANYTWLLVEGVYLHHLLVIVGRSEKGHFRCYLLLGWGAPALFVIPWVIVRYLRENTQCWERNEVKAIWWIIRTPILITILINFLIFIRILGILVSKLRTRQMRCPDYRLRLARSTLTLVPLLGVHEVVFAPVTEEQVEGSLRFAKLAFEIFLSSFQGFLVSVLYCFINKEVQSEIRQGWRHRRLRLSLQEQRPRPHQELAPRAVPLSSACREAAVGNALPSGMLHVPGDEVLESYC
Chain of UniProt P29352 (whole entry, looked up): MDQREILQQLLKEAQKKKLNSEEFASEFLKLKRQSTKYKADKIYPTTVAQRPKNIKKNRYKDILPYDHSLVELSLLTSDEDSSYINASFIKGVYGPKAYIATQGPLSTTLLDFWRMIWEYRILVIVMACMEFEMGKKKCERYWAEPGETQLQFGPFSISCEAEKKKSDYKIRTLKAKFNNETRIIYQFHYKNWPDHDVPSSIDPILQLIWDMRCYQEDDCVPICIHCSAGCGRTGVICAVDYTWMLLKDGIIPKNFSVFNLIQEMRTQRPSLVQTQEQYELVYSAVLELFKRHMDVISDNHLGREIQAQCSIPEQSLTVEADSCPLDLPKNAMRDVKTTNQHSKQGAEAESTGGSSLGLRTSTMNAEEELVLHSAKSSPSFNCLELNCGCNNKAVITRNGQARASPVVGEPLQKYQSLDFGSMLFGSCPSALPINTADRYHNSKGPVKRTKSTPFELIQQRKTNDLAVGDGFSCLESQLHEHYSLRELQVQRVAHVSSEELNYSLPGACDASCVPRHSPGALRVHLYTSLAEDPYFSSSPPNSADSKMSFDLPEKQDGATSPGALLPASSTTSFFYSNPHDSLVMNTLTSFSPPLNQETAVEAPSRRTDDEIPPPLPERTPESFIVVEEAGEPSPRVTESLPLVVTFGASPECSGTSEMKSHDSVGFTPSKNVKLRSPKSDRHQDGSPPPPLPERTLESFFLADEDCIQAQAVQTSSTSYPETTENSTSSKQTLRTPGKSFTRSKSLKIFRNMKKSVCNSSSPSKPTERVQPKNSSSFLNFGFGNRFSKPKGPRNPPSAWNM
Chain of UniProt Q01959 (whole entry, unmodified, looked up): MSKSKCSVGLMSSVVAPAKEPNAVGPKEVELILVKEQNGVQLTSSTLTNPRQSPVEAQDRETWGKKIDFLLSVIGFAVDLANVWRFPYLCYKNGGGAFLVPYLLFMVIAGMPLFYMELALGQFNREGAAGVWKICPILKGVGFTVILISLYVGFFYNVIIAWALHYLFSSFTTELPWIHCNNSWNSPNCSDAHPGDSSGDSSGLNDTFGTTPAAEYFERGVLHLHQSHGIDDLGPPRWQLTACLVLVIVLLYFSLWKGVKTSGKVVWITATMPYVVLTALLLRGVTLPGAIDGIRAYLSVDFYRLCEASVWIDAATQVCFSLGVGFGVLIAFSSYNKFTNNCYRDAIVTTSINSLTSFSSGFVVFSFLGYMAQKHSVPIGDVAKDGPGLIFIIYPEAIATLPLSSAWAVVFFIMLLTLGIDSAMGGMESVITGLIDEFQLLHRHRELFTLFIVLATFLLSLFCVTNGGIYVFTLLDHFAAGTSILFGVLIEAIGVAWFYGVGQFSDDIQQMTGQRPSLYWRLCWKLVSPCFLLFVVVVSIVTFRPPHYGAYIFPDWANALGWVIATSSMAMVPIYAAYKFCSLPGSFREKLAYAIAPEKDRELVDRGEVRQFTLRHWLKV

`Clc1ccc(C2C(n3ccnc3)C(c3ccc(Br)cc3)=NN2c2ccc(Cl)c(Cl)c2)cc1` (stereo not shown) gave an IC50 of 1200 nM (Genome polyprotein protease; enzyme activity, inhibitor).
`Cc1ccccc1N1C(=O)/C(=C/c2ccc(OCc3cccc(C(=O)O)c3)cc2)C(=O)NC1=S` has an IC50 of 7560 nM (Tyrosine-protein phosphatase non-receptor type 22 (Ptpn22, Mus musculus, UniProt P29352); phosphatase activity, inhibitor).
`CCCC[C@H]1C(=O)N[C@@H](C(C)C)C(=O)N[C@@H](Cc2ccc(O)cc2)C(=O)N[C@@H](C(C)C)C(=O)N[C@@H](CCCNC(=N)N)C(=O)N[C@@H](Cc2ccc(O)cc2)C(=O)N[C@@H](CCC(N)=O)C(=O)N(C)[C@@H](Cc2ccccc2)C(=O)N[C@H](C(N)=O)CSCC(=O)N[C@@H](Cc2ccccc2)C(=O)N[C@@H](Cc2c[nH]c3ccccc23)C(=O)N[C@@H](CC(C)C)C(=O)NCC(=O)N[C@@H](CCCCN)C(=O)N1C` gave an IC50 of 38 nM (AT-rich interactive domain-containing protein 1B (ARID1B, Homo sapiens, UniProt Q8NFD5); binding, TR-FRET; 1% DMSO, together with: tracer 4-cy5 30 nM).
`CC1(C)O[C@H]2OC(CNCCCCCCCCCCCCNCC3O[C@@H]4OC(C)(C)O[C@@H]4[C@H]3OCc3ccccc3)[C@H](OCc3ccccc3)[C@H]2O1` (stereo partly shown) has an IC50 of 11400 ± 1200 nM (DNA ligase A; enzyme activity, inhibitor; 1 h, 25 °C, 10% DMSO, together with: 50 µM NAD+).
With `CCCCn1c(NCc2ccc(N3N=C(c4ccccc4)CC3c3ccccc3)cc2)nc2ccccc21` (stereo not shown) the IC50 was 5400 nM (Genome polyprotein protease; enzyme activity, inhibitor).
The IC50 of `CC(C)c1nc2cc(O)ccc2c(=O)n1-c1ccc(C#N)cc1` is reported as 690 nM (TRPV1 (Homo sapiens, UniProt Q8NER1); ion current, inhibitor, whole-cell patch clamp; HEK293T; 30 s preincubation, +80 mV, together with: pH 5).
`COc1ccc2c(c1)CCC1C2=NN(C(C)=O)C1c1cccc(I)c1` (stereo not shown) has an IC50 of 7000 nM (Genome polyprotein protease; enzyme activity, inhibitor).
For `O=c1cc(-c2ccccc2F)[nH]c2cc3c(cc12)OCO3`, the IC50 was 2400 ± 417 nM (Adenosylmethionine-8-amino-7-oxononanoate aminotransferase; inhibitor, biochemical).
For `C=CC(=O)N1CCN(c2cc(-c3ccc(C4CCC4)cc3)ncc2C(=O)N[C@H](Cc2ccccc2)C(=O)NC)C(C)C1` (stereo partly shown), the IC50 was over 100000 nM (Replicase polyprotein 1ab main protease).
With `CC(C)[C@H](NC(=O)N[C@H](C(=O)N[C@H]1/C=C/CCNC(=O)/C=C/[C@H](C(C)C)NC1=O)C(C)C)C(=O)O` the IC50 was 28 nM (Proteasome subunit beta type-9 (Mus musculus, UniProt P28076); inhibitor).
With `CC[C@H](C)[C@H](NC(=O)[C@H](CO)NC(=O)[C@H](Cc1ccc(O)cc1)NC(=O)[C@H](CC(=O)O)NC(=O)[C@H](CO)NC(=O)[C@@H](NC(=O)[C@H](Cc1ccccc1)NC(=O)[C@@H](NC(=O)CNC(=O)[C@@H]1CCCN1C(=O)[C@H](C)NC(=O)[C@@H](N)Cc1ccc(O)cc1)[C@@H](C)O)[C@@H](C)CC)C(=O)N[C@@H](C)C(=O)N[C@@H](CCSC)C(=O)N[C@@H](CC(=O)O)C(=O)N[C@@H](CCCCN)C(=O)N[C@H](C(=O)N[C@@H](Cc1c[nH]cn1)C(=O)N[C@@H](CCC(N)=O)C(=O)N[C@@H](CCC(N)=O)C(=O)N[C@@H](CC(=O)O)C(=O)N[C@@H](Cc1ccccc1)C(=O)N[C@H](C(=O)N[C@@H](CC(N)=O)C(=O)N[C@@H](Cc1c[nH]c2ccccc12)C(=O)N[C@@H](CC(C)C)C(=O)N[C@@H](CC(C)C)C(=O)N[C@@H](C)C(=O)N[C@@H](CCC(N)=O)C(=O)N[C@@H](CCCCN)C(=O)NCC(=O)N[C@@H](CCCCN)C(=O)N[C@@H](CCCCN)C(=O)N[C@@H](CC(N)=O)C(=O)N[C@@H](CC(=O)O)C(=O)N[C@@H](Cc1c[nH]c2ccccc12)C(=O)N[C@@H](CCCCN)C(=O)N[C@@H](Cc1c[nH]cn1)C(=O)N[C@@H](CC(N)=O)C(=O)N[C@H](C(=O)N[C@H](C(=O)N[C@@H](CCC(N)=O)C(=O)O)[C@@H](C)O)[C@@H](C)CC)C(C)C)[C@@H](C)CC` the IC50 was 39.8 nM (Gastric inhibitory polypeptide receptor (Mus musculus, UniProt Q0P543); 4 h, 4 °C).
`CC1(C)OC2OC(C(CCO)NCCCCCCCCCCNC(CCO)C3OC4OC(C)(C)OC4C3OCc3ccccc3)C(OCc3ccccc3)C2O1` (stereo not shown) gave an IC50 of 260000 ± 4000 nM (DNA ligase A; enzyme activity, inhibitor; 1 h, 25 °C, 10% DMSO, together with: 50 µM NAD+).
For `CCOCC1C(c2ccc(Cl)c(Cl)c2)CC2CCC1N2C` (stereo not shown), the IC50 was 816 nM (SLC6A3 (Homo sapiens, UniProt Q01959, F326A); transporter uptake, inhibitor, radiometric).
`CC1C(=NNC(=O)c2ccncc2)C(C)C(c2ccc(Br)cc2)OC1c1ccc(Br)cc1` (stereo not shown) has an IC50 of 5760 nM (DNA gyrase subunit B, with GyrA (gyrB, Mycobacterium tuberculosis, UniProt P9WG45); ATPase activity, inhibitor).
For `COc1ccc(NC(=O)CN(C)S(=O)(=O)c2cc(C)cnc2N)cn1`, the IC50 was 331 nM (Dihydrolipoyl dehydrogenase; enzyme activity, inhibitor; together with: 50 nM enzyme).
`CN1C/C(=C\c2ccccc2)C2=NN(C(N)=S)[C@H](c3ccccc3)[C@@H]2C1` gave an IC50 of 189000 ± 9320 nM (Adenosylmethionine-8-amino-7-oxononanoate aminotransferase; inhibitor, biochemical).
`CCC[C@H](NC(=O)[C@H](CC(C)C)NC(=O)OCc1ccccc1)C(=O)C(=O)NCc1ccccn1` has an IC50 of 340 nM (Replicase polyprotein 1ab main protease; enzyme activity, inhibitor).
With `COc1cc(NC(=O)CN(C)S(=O)(=O)c2cc(C)cnc2N)ccn1` the IC50 was 196 nM (Dihydrolipoyl dehydrogenase; enzyme activity, inhibitor; together with: 50 nM enzyme).
`C=CC(=O)NC(CC(=C)C)C(=O)N1CC(C(=O)NC(C(=O)NC)C(C)CC)C(c2cccc(C(F)(F)F)c2)C1` (stereo not shown) has an IC50 of over 100000 nM (Replicase polyprotein 1ab, main protease (rep, Human coronavirus HKU1, UniProt P0C6X2)).
For `Fc1ccccc1CCNCc1cccc(Cl)c1Cl`, the IC50 was 5570 nM (SLC6A2 (Homo sapiens, UniProt P23975); transporter uptake, inhibitor, radiometric).
With `C=CC(=O)NC(CC(=C)C)C(=O)N1CC(C(=O)NC(CCSC)C(=O)NC)C(c2cccc(C(F)(F)F)c2)C1` (stereo not shown) the IC50 was over 100000 nM (Replicase polyprotein 1ab main protease).
With `Cc1cccc(C)c1N1Cc2cnc(Nc3ccc(N4CCN(C)CC4)cc3)nc2N(C23CC4CC(CC(C4)C2)C3)C1=O` the IC50 was 9.7 nM (SIK1 (Homo sapiens, UniProt P57059); inhibitor).

A few entries again:
`CC1C(=NNC(=O)c2ccncc2)C(C)C(c2ccc(Br)cc2)OC1c1ccc(Br)cc1` (stereo not shown) has an IC50 of 5760 nM (DNA gyrase subunit B, with GyrA (gyrB, Mycobacterium tuberculosis, UniProt P9WG45); ATPase activity, inhibitor).
For `COc1ccc(NC(=O)CN(C)S(=O)(=O)c2cc(C)cnc2N)cn1`, the IC50 was 331 nM (Dihydrolipoyl dehydrogenase; enzyme activity, inhibitor; together with: 50 nM enzyme).
